Experimental data gathered from unrelated publications.
Every numbered part comes from another study and shows a few of its results, in no order.
Chain of UniProt P28335 (whole entry, looked up): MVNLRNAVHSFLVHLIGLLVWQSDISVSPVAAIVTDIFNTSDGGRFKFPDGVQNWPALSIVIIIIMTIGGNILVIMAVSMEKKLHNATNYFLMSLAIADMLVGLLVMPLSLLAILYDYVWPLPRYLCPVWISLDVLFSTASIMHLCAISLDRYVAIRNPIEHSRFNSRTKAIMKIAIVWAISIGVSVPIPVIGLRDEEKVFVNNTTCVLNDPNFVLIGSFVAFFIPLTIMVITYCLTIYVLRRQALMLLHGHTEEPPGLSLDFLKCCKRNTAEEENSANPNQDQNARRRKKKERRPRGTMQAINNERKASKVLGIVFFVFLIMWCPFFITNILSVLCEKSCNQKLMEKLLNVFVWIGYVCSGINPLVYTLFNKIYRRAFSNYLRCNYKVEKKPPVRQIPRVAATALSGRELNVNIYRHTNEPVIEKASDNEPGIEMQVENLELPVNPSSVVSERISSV
Chain of UniProt P06870 (whole entry, looked up): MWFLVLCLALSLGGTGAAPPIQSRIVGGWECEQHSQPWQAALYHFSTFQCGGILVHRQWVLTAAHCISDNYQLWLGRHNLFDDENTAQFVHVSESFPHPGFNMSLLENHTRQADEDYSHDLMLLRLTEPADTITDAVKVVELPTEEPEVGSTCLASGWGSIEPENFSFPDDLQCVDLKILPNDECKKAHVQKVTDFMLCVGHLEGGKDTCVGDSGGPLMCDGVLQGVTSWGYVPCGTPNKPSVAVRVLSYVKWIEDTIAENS
Chain of UniProt P9WI81 (whole entry, looked up): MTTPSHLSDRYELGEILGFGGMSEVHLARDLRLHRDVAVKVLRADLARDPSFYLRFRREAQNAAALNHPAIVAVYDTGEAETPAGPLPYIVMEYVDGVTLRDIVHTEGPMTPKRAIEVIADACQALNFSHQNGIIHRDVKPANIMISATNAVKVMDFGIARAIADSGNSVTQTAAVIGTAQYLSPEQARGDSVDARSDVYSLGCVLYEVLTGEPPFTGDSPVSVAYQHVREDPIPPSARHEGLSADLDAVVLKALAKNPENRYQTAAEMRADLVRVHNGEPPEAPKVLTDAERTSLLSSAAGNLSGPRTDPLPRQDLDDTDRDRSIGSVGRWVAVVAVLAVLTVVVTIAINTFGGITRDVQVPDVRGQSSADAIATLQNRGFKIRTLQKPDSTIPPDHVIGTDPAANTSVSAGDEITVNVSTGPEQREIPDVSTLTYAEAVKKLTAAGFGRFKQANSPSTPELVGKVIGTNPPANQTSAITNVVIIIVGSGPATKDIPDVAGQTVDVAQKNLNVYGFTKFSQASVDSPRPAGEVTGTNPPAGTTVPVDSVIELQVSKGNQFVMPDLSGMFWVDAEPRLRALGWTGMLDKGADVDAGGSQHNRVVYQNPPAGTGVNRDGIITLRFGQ
Chain of UniProt P61075 (whole entry, looked up): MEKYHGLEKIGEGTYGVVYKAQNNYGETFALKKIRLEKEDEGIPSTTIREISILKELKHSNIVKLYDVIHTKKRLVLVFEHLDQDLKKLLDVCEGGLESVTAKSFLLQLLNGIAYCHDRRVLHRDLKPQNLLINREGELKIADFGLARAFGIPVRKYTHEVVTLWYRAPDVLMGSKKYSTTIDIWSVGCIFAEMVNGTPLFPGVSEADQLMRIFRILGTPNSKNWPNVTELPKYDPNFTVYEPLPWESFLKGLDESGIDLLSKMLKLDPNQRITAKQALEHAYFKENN
Chain of UniProt P28223 (whole entry, looked up): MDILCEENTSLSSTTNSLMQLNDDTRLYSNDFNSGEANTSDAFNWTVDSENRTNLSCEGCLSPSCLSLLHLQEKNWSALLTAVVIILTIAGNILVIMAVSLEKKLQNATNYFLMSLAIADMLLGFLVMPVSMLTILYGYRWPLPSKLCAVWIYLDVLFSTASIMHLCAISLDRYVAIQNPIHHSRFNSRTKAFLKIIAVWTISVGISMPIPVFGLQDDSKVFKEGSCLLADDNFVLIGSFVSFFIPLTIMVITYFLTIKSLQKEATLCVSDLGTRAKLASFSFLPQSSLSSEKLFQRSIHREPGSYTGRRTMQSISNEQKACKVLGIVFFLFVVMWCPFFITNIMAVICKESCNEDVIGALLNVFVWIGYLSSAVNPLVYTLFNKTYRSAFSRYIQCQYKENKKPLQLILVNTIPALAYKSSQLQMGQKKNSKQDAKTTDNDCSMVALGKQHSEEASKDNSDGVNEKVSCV

Block 1
Cell line: HEK-293T-ACE2-TMPRSS2
Method: cell count
Tested at: 10 µM
Endpoint: viability
CCN(CC(=O)Nc1cc(Cl)ccc1C)c1ncnc2c1oc1ccccc12: 87%
CCCS(=O)(=O)c1ncc(Cl)c(C(=O)Nc2ccc(OCC)cc2)n1: 65%
O=C(NCCc1ccc(Cl)cc1)C(=O)c1ccc[nH]1: 81%
CN(Cc1cnccn1)C(=O)c1ccc(CSc2ncccn2)o1: 80%
[O-][n+]1ccccc1[S-].[O-][n+]1ccccc1[S-].[Zn+2]: 107%
Cc1ccc(/C(C#N)=C2\C=CC(=NO)C(Cl)=C2)cc1: 72%
O=c1c(Cl)c(Cl)cnn1Cn1nnc2ccccc2c1=O: 83%
CC(C)C[C@H](NC(=O)[C@H](CCc1ccccc1)NC(=O)CN1CCOCC1)C(=O)N[C@@H](Cc1ccccc1)C(=O)N[C@@H](CC(C)C)C(=O)[C@@]1(C)CO1: 131%
Cc1ccsc1CNc1ccc(C(=O)N2CCCC(Cn3ccnc3C)C2)cc1 (stereo not drawn): 68%
Cn1nc(-c2nnc(-c3ccc(F)cc3)o2)c2c1CCN(S(=O)(=O)c1ccc(Cl)s1)C2: 104%
NC(=S)N/N=C/c1ncc(C(F)(F)F)cc1Cl: 73%
NC1(C(=O)NCCC2CN(Cc3ccco3)CCO2)CCCC1 (stereo not drawn): 81%
COc1ccc(CNC(=O)C2(C)Cc3ccccc3C(=O)N2c2ccc(OC)cc2)cc1 (stereo not drawn): 86%
CCOC(=O)N1CCN(C(=O)Cn2ncc(Cl)c(Cl)c2=O)CC1: 65%
Cc1occc1C(=O)N[C@@H]1CN(c2ncccn2)C[C@H]1CO: 115%
CCN(c1ccc2sc(C(=O)Nc3cccc(OC)c3)cc2c1)S(C)(=O)=O: 75%
C=CC(=O)N1CC(=Cc2ccc([N+](=O)[O-])cc2)C(=O)/C(=C/c2ccc([N+](=O)[O-])cc2)C1: 149%
COc1cccc(C(=O)N/N=C(\C)c2ccccc2O)c1: 84%
Cc1cc(C(=O)N(C)Cc2nc3ccccc3n2C)cc(S(N)(=O)=O)c1C: 66%
CCc1noc([C@@H]2CC(F)(F)CN2C(=O)C2CCOCC2)n1: 97%
CCOC(=O)N1CCN(C2CCCN(C(=O)CCCc3cccs3)C2)CC1 (stereo not drawn): 103%
Cc1cnc(C)c(-c2cc(O)c3c(c2)CN(C(=O)C2CCOCC2)CCO3)n1: 68%
N#CC1(NC(=O)Cn2ncc(Cl)c(Cl)c2=O)CCCCC1: 71%
COc1ccc(C2CC(=O)Nc3cc(O)c(C)cc32)cc1Cn1cccn1 (stereo not drawn): 102%
O=C(NC1CCCCCC1)c1ccc(-c2ccc(F)cc2)nc1: 108%

Block 2
Cell line: HEK-293T/ACE2
Tested at: 10 µM
Time: 16 h
Baseline: vehicle
Endpoint: viability
CNCC[C@@H](Oc1ccccc1C)c1ccccc1: 99.9%
O=c1[nH]c2ccccc2n1C1CCN(CCCC(c2ccc(F)cc2)c2ccc(F)cc2)CC1: 104%
NC(=O)c1ncn([C@@H]2O[C@H](CO)[C@@H](O)[C@H]2O)n1: 102%
COc1ccccc1OCC(O)COC(N)=O (stereo not drawn): 99.3%
C[C@H]1COc2c(N3CCN(C)CC3)c(F)cc3c(=O)c(C(=O)O)cn1c23: 102%
CN(C)C(=O)Oc1ccc[n+](C)c1: 105%
Cc1ccc(C)c(OCCCC(C)(C)C(=O)O)c1: 100%
CC1(C)S[C@@H]2[C@H](NC(=O)Cc3ccccc3)C(=O)N2[C@H]1C(=O)O: 98.2%
NCC1(CC(=O)O)CCCCC1: 102%
Cc1ccc(Sc2ccccc2N2CCNCC2)c(C)c1: 98.9%
Nc1nc(Cl)nc2c1ncn2[C@H]1C[C@H](O)[C@@H](CO)O1: 84.4%
CC1Cc2ccccc2N1NC(=O)c1ccc(Cl)c(S(N)(=O)=O)c1 (stereo not drawn): 102%

Block 3
Cell line: HaCaT
Tested at: 100 µM
Time: 36 h
Endpoint: viability
C[C@H]1CC(=O)C[C@@H]2CC[C@H]3[C@@H]4CC[C@H](O)[C@@]4(C)CC[C@@H]3[C@]21C: 61%
N#Cc1ccccc1-c1cc(-c2ccccn2)cn(-c2ccccc2)c1=O: 47.5%
Cl[C@H]1[C@H](Cl)[C@@H](Cl)[C@@H](Cl)[C@H](Cl)[C@H]1Cl: 19.3%
COc1cc2c(cc1OC)C13CCN4CC5=CCOC6CC(=O)N2C1C6C5CC43 (stereo not drawn): 84.5%
Cn1c(CCCC(=O)O)nc2cc(N(CCCl)CCCl)ccc21: 72.2%
COc1cccc2c1cc([N+](=O)[O-])c1c(C(=O)O)cc3c(c12)OCO3: 36.1%
C[C@]12CC[C@H]3[C@@H](CCC4=CC(=O)CC[C@@]43C)[C@@H]1CC[C@@H]2OC(=O)CCc1ccccc1: 108%
Cc1cccc([C@H](C)c2cnc[nH]2)c1C: 108%
Oc1cc(Cl)ccc1Oc1ccc(Cl)cc1Cl: 5.32%

Other studies, line by line
CN1CCN(C(=O)C(C)(C)c2ccc(C(=O)Nc3cn4cc(-c5ccncc5)ccc4n3)cc2)CC1 — inhibition (HTR2A (Homo sapiens, UniProt P28223); binding, radioligand binding; 10 µM): -2.63%
CC(=O)N[C@@H](CC(C)C)C(=O)N[C@@H](CC(C)C)C(=O)N[C@H](C=O)CCCNC(=N)N — IC50 (Kallikrein-1 (KLK1, Homo sapiens, UniProt P06870)): 3.49 µM
O=C1CCc2cc(Nc3cc(OC4CCOCC4)c([N+](=O)[O-])cc3Cl)ccc2N1 — inhibition (HTR2C (Homo sapiens, UniProt P28335); binding, radioligand binding; 10 µM): -11.9%
NS(=O)(=O)c1cc(NC(=O)C2(c3ccccc3Cl)CC2)ccc1Oc1cccc(Cl)c1 — remaining binding (pknB (Mycobacterium tuberculosis, UniProt P9WI81); cell-free assay, competition with immobilised ligand; 1 µM): 90%
CS(=O)(=O)N1CCCC(NC(=O)[C@H](CCC2CCCCC2)NC(=O)c2ccc(CNc3ncnc4c3nnn4-c3ccccc3)cc2)C1 (stereo partly drawn) — remaining binding (CRK2 (Plasmodium falciparum, UniProt P61075); cell-free assay, competition with immobilised ligand; 0.1 µM): 100%

Repeated from above (block 3):
Cc1cccc([C@H](C)c2cnc[nH]2)c1C: 108%
Cl[C@H]1[C@H](Cl)[C@@H](Cl)[C@@H](Cl)[C@H](Cl)[C@H]1Cl: 19.3%
Cn1c(CCCC(=O)O)nc2cc(N(CCCl)CCCl)ccc21: 72.2%
Oc1cc(Cl)ccc1Oc1ccc(Cl)cc1Cl: 5.32%
